Assay results gathered from unrelated publications.
Compare with care: the assays were run in different laboratories. ± marks the error that the study gave. ≈ marks a conversion by molar mass, not a printed value.
BCHE: Cholinesterase (BCHE, Homo sapiens, UniProt P06276)
UniProt P06276, sequence (whole entry, looked up): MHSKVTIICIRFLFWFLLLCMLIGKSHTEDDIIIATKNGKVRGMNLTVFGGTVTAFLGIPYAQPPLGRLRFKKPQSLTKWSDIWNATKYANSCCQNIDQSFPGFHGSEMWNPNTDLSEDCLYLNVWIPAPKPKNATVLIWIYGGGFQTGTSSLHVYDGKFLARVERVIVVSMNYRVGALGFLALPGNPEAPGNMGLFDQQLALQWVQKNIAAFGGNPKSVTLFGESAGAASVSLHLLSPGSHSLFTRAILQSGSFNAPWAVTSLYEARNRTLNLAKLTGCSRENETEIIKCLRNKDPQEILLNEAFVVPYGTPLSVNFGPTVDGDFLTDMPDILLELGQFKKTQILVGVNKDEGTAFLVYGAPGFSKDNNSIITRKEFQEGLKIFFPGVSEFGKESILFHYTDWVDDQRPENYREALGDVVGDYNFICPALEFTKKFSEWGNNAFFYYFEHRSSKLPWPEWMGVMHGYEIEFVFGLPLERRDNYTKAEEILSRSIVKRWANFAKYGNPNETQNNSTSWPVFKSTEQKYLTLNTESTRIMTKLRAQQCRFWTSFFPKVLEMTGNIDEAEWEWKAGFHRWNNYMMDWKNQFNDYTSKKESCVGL

With Cc1ccccc1C(=O)NN=Cc1ccc(O)c(Br)c1 the FIC index was 1 (Cryptococcus neoformans; added: caspofungin; lower = more synergistic).
With Cn1c(=O)ccc2ccc(F)c(CCNC[C@H]3CN(c4cnc5c(n4)NC(=O)CO5)C(=O)O3)c21 the MIC50 was < 0.015 µg/mL (Campylobacter spp.).
With Cc1cc(NC(=O)c2cc(S(=O)(=O)N3CCCCC3)ccc2C)no1 the EC50 was 533 ± 160 nM (Plasmodium falciparum; parasite growth, SYBR Green; 3D7 wild type; 72 h).
The MBC90 of CC[C@H](C)[C@H](NC(=O)[C@H](C)NC(=O)[C@H](CCCCN)NC(=O)[C@H](CC(C)C)NC(=O)[C@H](C)NC(=O)[C@@H](NC(=O)[C@H](Cc1c[nH]cn1)NC(=O)[C@H](CC(C)C)NC(=O)[C@@H](NC(=O)[C@@H](NC(=O)[C@H](CCCCN)NC(=O)[C@H](C)NC(=O)[C@H](C)NC(=O)[C@H](CO)NC(=O)[C@H](CCCCN)NC(=O)[C@H](Cc1ccccc1)NC(=O)[C@@H](NC(=O)[C@H](CCCCN)NC(=O)[C@H](CC(C)C)NC(=O)[C@H](Cc1ccccc1)NC(=O)[C@H](CO)NC(=O)[C@H](CCCCN)NC(=O)[C@H](Cc1c[nH]c2ccccc12)NC(=O)[C@H](CCCCN)NC(C)=O)[C@@H](C)O)[C@@H](C)O)C(C)C)[C@@H](C)O)C(=O)N[C@@H](CO)C(=O)N[C@@H](CO)C(N)=O is reported as > 64 µg/mL (Citrobacter; 20 strains).
C#Cc1ccc(O)c(C=NNC(=O)c2ccc(C3(C(F)(F)F)N=N3)cc2)c1 gave an FICI of 0.62 (Cryptococcus neoformans; H99; unit not given, added: fluconazole; lower = more synergy).
With CC(C)Oc1ccc(-c2nc(-c3cccc4c3CC[C@@H]4NCCO)no2)cc1C#N the inhibition was ≥ 50% (Clostridioides difficile; ATCC 43255; 45 µM, 1 h, spores).
Under “fold MIC reduction”, O=C(O)c1cccc(C(=O)O)n1 is recorded as 128 (Providencia stuartii; NDM-1 producer; 32 µg/mL, added: meropenem; baseline: meropenem alone).
The IC50 of CC[C@H]1CN2CC[C@H]1C[C@H]2[C@H](O)c1ccnc2ccc(OC)cc12 is reported as 10300 ± 3010 nM (BCHE; inhibitor).
With CCOC(=O)N1CCC(=C2c3ccc(Cl)cc3CCc3cccnc32)CC1 the IC50 was 10000 nM (Plasmodium falciparum; Dd2).
For O=C(CNCC1CCCCC1)Nc1cc(C(F)(F)F)ccc1Cl, the EC50 was 474 ± 100 nM (Plasmodium falciparum; parasite growth, SYBR Green; 3D7 wild type; 72 h).
COc1cc(N[C@H](C(=O)c2c[nH]c3ccc(OC(F)(F)F)cc23)c2ccc(Cl)cc2OC)cc(S(C)(=O)=O)c1 gave an inhibition of 100% (dengue virus 2; viral infection, luciferase reporter virus; 3 nM, 48 h).
CC(C)[C@@H]1NC(=O)[C@@H](CCCCN)NC(=O)[C@H](CCCN)NC(=O)[C@@H](CC(=O)O)NC(=O)[C@H](C)NC(=O)[C@H](Cc2c[nH]c3ccccc23)NC(=O)[C@@H](Cc2ccccc2)NC1=O gave an IC50 of > 16 µg/mL (Acanthamoeba castellanii; trophozoites).
OC(CN1CCC(Cc2ccc(F)cc2)CC1)c1ccc(Cl)cc1 (stereo not drawn) has an IC50 of 316 nM (Plasmodium falciparum; GB4).
The fold enrichment of Nc1ncnc2c1ncn2[C@@H]1O[C@@H]2COP(=O)(O)O[C@H]3[C@@H](O)[C@H](n4cnc5c(=O)[nH]cnc54)O[C@@H]3COP(=O)(O)O[C@H]2[C@H]1O is reported as 2.92 (West Nile virus; RNA sequencing Reactome analysis, refers to: Axon guidance (R-HSA-422475); HFF-1; concentration not given, downregulated pathways, added: West Nile virus infection; baseline: WNV-infected without compound).
For CN(C)c1nc(NCc2cccc(C(F)(F)F)c2)c(/N=N/c2ccc(Cl)cc2)c(N(C)C)n1, the mortality was 100% (Ostrinia furnacalis; leaf dipping; 500 mg/L, 96 h).
With Cc1cc(Nc2ccc(Cl)c(Cl)c2)n2nc(C)nc2n1 the EC50 was 777 ± 120 nM (Plasmodium falciparum; parasite growth, SYBR Green; 3D7 wild type; 72 h).
Cc1ccc2[nH]c3c(c2c1)CCCC3NCCc1cccc(Br)c1 (stereo not drawn) — result for “MIC fold change”: 4 (Streptococcus pneumoniae; concentration not given, 10% fetal bovine serum; baseline: without serum).
C#Cc1ccc(O)c(C=NNC(=O)c2ccc(Br)cc2)c1 has an FICI of 2 (Candida albicans; A39; unit not given, added: caspofungin; lower = more synergy).
For CCC(=O)N1CCN(C(=O)c2ccccc2)CC1, the IC50 was 3160 nM (Plasmodium falciparum; HB3).
With COCc1ccccc1C(=O)NCCOc1cc(C)cc(C)c1 the EC50 was 189 ± 55 nM (Plasmodium falciparum; parasite growth, SYBR Green; 3D7 wild type; 72 h).
For COc1ccc(NC(=O)N2CCCCN3[C@H](CN(C)C)[C@H](c4ccc(C#Cc5ccccc5)cc4)[C@@H]3C2)cc1, the inhibition was 0.4 ± 20% (Cryptosporidium parvum; host cell invasion; concentration not given; baseline: vehicle).
CC(=O)c1c(Cc2ccccc2Cl)c[nH]c1C has an EC50 of 424 ± 170 nM (Plasmodium falciparum; parasite growth, SYBR Green; 3D7 wild type; 72 h).
With Clc1ccccc1CNCC1CCC(CNCc2ccccc2Cl)CC1 (stereo not drawn) the IC50 was 20900 ± 1360 nM (BCHE; inhibitor; with Triton).
For CC(C)[C@H]1NC(=O)[C@H](CCCNC(=N)N)NC(=O)CNC(=O)[C@@H](Cc2c[nH]c3ccccc23)NC(=O)[C@H](CCCCN)NC(=O)[C@@H](CCCN)NC1=O, the IC50 was > 16 µg/mL (Naegleria fowleri; trophozoites).
With CNC(=O)c1cc(Cl)cc(C)c1NC(=O)c1cc(Br)nn1-c1ncccc1Cl the larval survival was 25.6% (Spodoptera litura; Brassica oleracea field; 25 ppm, 72 h, 5% water-dispersible granule).
CC(C)[C@H]1NC(=O)[C@H](Cc2ccccc2)NC(=O)[C@@H](Cc2c[nH]c3ccccc23)NC(=O)[C@H](CCCNC(=N)N)NC(=O)[C@@H](CCCN)NC(=O)[C@H](CC(N)=O)NC1=O has an IC90 of > 16 µg/mL (Naegleria fowleri; trophozoites).
With COc1c([N+](=O)[O-])oc2ccc3ccccc3c12 the MIC90 was > 32 µg/mL (Klebsiella pneumoniae; REMA).
The Emax of COc1ccccc1OCC(O)CN1CCN(CC(=O)Nc2c(C)cccc2C)CC1 (stereo not drawn) is reported as 17.4% (Human coronavirus OC43; virus-induced cell killing; MRC-5).
COC(=O)N[C@H](C(=O)N1CCC[C@H]1c1ncc(-c2ccc(-c3ccc(-c4cnc([C@@H]5CCCN5C(=O)[C@@H](NC(=O)OC)C(C)C)[nH]4)cc3)cc2)[nH]1)C(C)C gave a combination index of 0.85 (Hepatitis C virus; replicon cells, genotype 1a; 90% effect level, added: NS3 inhibitor, ratio 1:1).
CC(C)[C@@H]1NC(=O)[C@@H](CC(N)=O)NC(=O)[C@H](Cc2ccccc2)NC(=O)[C@@H](CCCN)NC(=O)[C@H](CCCN)NC(=O)[C@H]([C@@H](C)O)NC(=O)[C@@H](C(C)C)NC(=O)[C@H](C(C)C)NC(=O)[C@@H]([C@H](C)O)NC(=O)[C@@H](C(C)C)NC1=O gave an IC90 of > 16 µg/mL (Naegleria fowleri; trophozoites).
CS(=O)(=O)CCCn1c(Cn2c(=O)n(CC(F)(F)F)c3ccncc32)cc2cc(Cl)ccc21 — result for “LS mean viral load change”: -4.77 log10 copies/mL (respiratory syncytial virus; RT-qPCR; hospitalized infants 1-24 months, nasal swab; oral, 9, 6 or 5 mg/kg daily, day 28, high dose by age cohort; baseline: baseline).
For CNCCCN1c2ccccc2CCc2ccccc21, the IC50 was 2000 nM (Plasmodium falciparum; Dd2).
CC(C)[C@H]1NC(=O)[C@H](Cc2ccccc2)NC(=O)CNC(=O)[C@@H](Cc2ccccc2)NC(=O)[C@H](CCCCN)NC(=O)[C@@H](CCCNC(=N)N)NC1=O gave an IC90 of > 16 µg/mL (Acanthamoeba castellanii; trophozoites).
With Cc1cc(=O)oc2c1ccc1oc(C(O)c3ccc(Cl)cc3)c(C)c12 (stereo not drawn) the EC50 was 273 ± 38 nM (Plasmodium falciparum; parasite growth, SYBR Green; 3D7 DHODH E182D; 72 h).
O=C(O)c1cn(C2CC2)c2cc(N3CCNCC3)c(F)cc2c1=O gave a biofilm inhibition of 85% (Staphylococcus aureus; ATCC 33591 MRSA; 1×MIC).
For O=S(=O)(c1cccc2c(Cl)cccc12)N1CCCNCC1, the IC50 was 3980 nM (Plasmodium falciparum; GB4).
O=C(NC(=O)c1c(F)cccc1F)Nc1ccc(Cl)cc1 has a mortality of 33.3 ± 5.8% (Ostrinia furnacalis; leaf dipping; 50 mg/L, 96 h).
With CCNC(=O)N1CCN(CCCC(c2ccc(F)cc2)c2ccc(F)cc2)CC1 the IC50 was 316 nM (Plasmodium falciparum; W2).
With CO/C=C(/C(=O)OC)c1ccccc1Oc1cc(Oc2ccccc2C#N)ncn1 the EC95 was 12.4 µg/mL (≈ 30.7 µM) (Botrytis cinerea; lesion diameter, spray; B05.10, cucumber seedlings; 3 days, 20 °C).
With CC(C)C[C@H]1NC(=O)[C@H]([C@@H](C)O)NC(=O)[C@@H](CCCN)NC(=O)[C@H](CCCNC(=N)N)NC(=O)[C@@H](Cc2ccccc2)NC1=O the IC90 was > 16 µg/mL (Naegleria fowleri; trophozoites).
O=C(NN=Cc1ccc(O)c(Br)c1)c1cccc(Br)c1 — result for “MIC in combination”: 0.15 µg/mL (Cryptococcus neoformans; concentration not given, added: caspofungin).
The mortality of Cc1cc(Cl)cc(S(C)(=O)=O)c1NC(=O)c1cc(Br)nn1-c1ncccc1Cl is reported as 96.7% (Spodoptera litura; leaf-dip; third instar larvae; 12.5 ppm, 72 h).

For quick reference, copied from above:
With Cn1c(=O)ccc2ccc(F)c(CCNC[C@H]3CN(c4cnc5c(n4)NC(=O)CO5)C(=O)O3)c21 the MIC50 was < 0.015 µg/mL (Campylobacter spp.).
With Cc1cc(NC(=O)c2cc(S(=O)(=O)N3CCCCC3)ccc2C)no1 the EC50 was 533 ± 160 nM (Plasmodium falciparum; parasite growth, SYBR Green; 3D7 wild type; 72 h).
The MBC90 of CC[C@H](C)[C@H](NC(=O)[C@H](C)NC(=O)[C@H](CCCCN)NC(=O)[C@H](CC(C)C)NC(=O)[C@H](C)NC(=O)[C@@H](NC(=O)[C@H](Cc1c[nH]cn1)NC(=O)[C@H](CC(C)C)NC(=O)[C@@H](NC(=O)[C@@H](NC(=O)[C@H](CCCCN)NC(=O)[C@H](C)NC(=O)[C@H](C)NC(=O)[C@H](CO)NC(=O)[C@H](CCCCN)NC(=O)[C@H](Cc1ccccc1)NC(=O)[C@@H](NC(=O)[C@H](CCCCN)NC(=O)[C@H](CC(C)C)NC(=O)[C@H](Cc1ccccc1)NC(=O)[C@H](CO)NC(=O)[C@H](CCCCN)NC(=O)[C@H](Cc1c[nH]c2ccccc12)NC(=O)[C@H](CCCCN)NC(C)=O)[C@@H](C)O)[C@@H](C)O)C(C)C)[C@@H](C)O)C(=O)N[C@@H](CO)C(=O)N[C@@H](CO)C(N)=O is reported as > 64 µg/mL (Citrobacter; 20 strains).
C#Cc1ccc(O)c(C=NNC(=O)c2ccc(C3(C(F)(F)F)N=N3)cc2)c1 gave an FICI of 0.62 (Cryptococcus neoformans; H99; unit not given, added: fluconazole; lower = more synergy).
